{"data": "Assay results gathered from unrelated publications", "note": "Parts stem from different laboratories: compare values within a part only. Positions count from the first letter of the parent shown."}
{"data": "Series 1", "target": "Prothrombin, mature alpha-thrombin (F2, Homo sapiens, UniProt P00734)", "technique": "aptamer microarray, sandwich", "molecule type": "DNA with 2'F-ANA", "medium": "in vitro", "tested at": "200 nM", "setting": "whole 15-mer aptamer, many near background", "added": "Cy3 exosite-II aptamer, 400 nM", "direction": "higher = stronger binding", "sequence": "GGTTGGTGTGGTTGG"}
{"Modification": "2'F-ANA at 1 2 3 4 6 7 8 9 12 14 15", "mean fluorescence intensity [a.u.]": 77.1}
{"Modification": "2'F-ANA at 3 6 8 11 14 15", "mean fluorescence intensity [a.u.]": 540}
{"Modification": "2'F-ANA at 1 3 4 8 9 11 12 14", "mean fluorescence intensity [a.u.]": 74.4}
{"Modification": "2'F-ANA at 1 5 6 12 14 15", "mean fluorescence intensity [a.u.]": 50.3}
{"Modification": "2'F-ANA at 1 3 4 6 8 9 13 14", "mean fluorescence intensity [a.u.]": 118}
{"Modification": "2'F-ANA at 2 6 7 9 10 12 13", "mean fluorescence intensity [a.u.]": 146}
{"Modification": "2'F-ANA at 4 6 8 12", "mean fluorescence intensity [a.u.]": 596}
{"Modification": "2'F-ANA at 2 5 6 8 9 12 13 14 15", "mean fluorescence intensity [a.u.]": 48.1}
{"Modification": "2'F-ANA at 1 2 3 4 6 7 11 12", "mean fluorescence intensity [a.u.]": 240}
{"Modification": "2'F-ANA at 3 4 10 11 12 15", "mean fluorescence intensity [a.u.]": 354}
{"Modification": "2'F-ANA at 4 5 7 9 10 12", "mean fluorescence intensity [a.u.]": 57.7}
{"Modification": "2'F-ANA at 1 4 6 8 10 11 13 14", "mean fluorescence intensity [a.u.]": 60.4}
{"Modification": "2'F-ANA at 1 3 6 8 10 11 12", "mean fluorescence intensity [a.u.]": 91.9}
{"Modification": "2'F-ANA at 1 3 4 6 7 8 10 11 14", "mean fluorescence intensity [a.u.]": 53.9}
{"Modification": "2'F-ANA at 1 3 8 9 10 11 13 14", "mean fluorescence intensity [a.u.]": 56.5}
{"Modification": "2'F-ANA at 1 5 8 12 13 14 15", "mean fluorescence intensity [a.u.]": 46.4}
{"Modification": "2'F-ANA at 1 2 3 5 6 7 9 13", "mean fluorescence intensity [a.u.]": 61.5}
{"Modification": "2'F-ANA at 2 3 4 5 6 7 9 10 11", "mean fluorescence intensity [a.u.]": 73.3}
{"Modification": "2'F-ANA at 4 8 9 10 11 12 14 15", "mean fluorescence intensity [a.u.]": 86.9}
{"Modification": "2'F-ANA at 1 2 5 8 10 11 13", "mean fluorescence intensity [a.u.]": 46}
{"Modification": "2'F-ANA at 1 3 6 7 11 12 15", "mean fluorescence intensity [a.u.]": 384}
{"Modification": "2'F-ANA at 1 2 5 8 9 12 15", "mean fluorescence intensity [a.u.]": 114}
{"Modification": "2'F-ANA at 1 6 7 8 9 12", "mean fluorescence intensity [a.u.]": 413}
{"Modification": "2'F-ANA at 2 7 8 9 10 12 15", "mean fluorescence intensity [a.u.]": 195}
{"Modification": "2'F-ANA at 1 4 5 6 11 12 13 14", "mean fluorescence intensity [a.u.]": 46.9}
{"data": "Series 2", "target": "CEP164, C-terminal peptide (human)", "technique": "DHFR complementation, deep sequencing", "medium": "yeast", "setting": "single substitutions, model-inferred values", "baseline": "wild type", "direction": "higher = weaker binding", "parent": "PDZK1, PDZ domain 2 (human); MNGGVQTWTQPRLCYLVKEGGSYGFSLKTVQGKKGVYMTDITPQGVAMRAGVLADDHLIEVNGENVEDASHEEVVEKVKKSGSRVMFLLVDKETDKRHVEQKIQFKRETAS; partner HNRVKVYRF"}
{"Variant": "Q44F", "binding free energy change": "0.0269 kcal/mol"}
{"Variant": "R49S", "binding free energy change": "0.398 kcal/mol"}
{"Variant": "E73Y", "binding free energy change": "-0.214 kcal/mol"}
{"Variant": "D56G", "binding free energy change": "0.354 kcal/mol"}
{"Variant": "K18F", "binding free energy change": "1.27 kcal/mol"}
{"Variant": "S111F", "binding free energy change": "0.951 kcal/mol"}
{"Variant": "G32Q", "binding free energy change": "0.469 kcal/mol"}
{"Variant": "L58G", "binding free energy change": "0.533 kcal/mol"}
{"Variant": "Q6T", "binding free energy change": "0.00677 kcal/mol"}
{"Variant": "D40C", "binding free energy change": "0.693 kcal/mol"}
{"Variant": "L27C", "binding free energy change": "0.914 kcal/mol"}
{"Variant": "S111Q", "binding free energy change": "-0.0904 kcal/mol"}
{"Variant": "K92E", "binding free energy change": "-0.034 kcal/mol"}
{"data": "Series 3", "target": "ABI1, truncated, D143A, DHFR fusion (Arabidopsis thaliana)", "technique": "DHFR PCA, deep sequencing", "medium": "yeast", "setting": "methotrexate growth selection, single substitutions", "added": "(+)-ABA 58 µM", "baseline": "wild-type fitted maximum", "direction": "higher = stronger binding", "parent": "PYL1, truncated, DHFR fusion (Arabidopsis thaliana); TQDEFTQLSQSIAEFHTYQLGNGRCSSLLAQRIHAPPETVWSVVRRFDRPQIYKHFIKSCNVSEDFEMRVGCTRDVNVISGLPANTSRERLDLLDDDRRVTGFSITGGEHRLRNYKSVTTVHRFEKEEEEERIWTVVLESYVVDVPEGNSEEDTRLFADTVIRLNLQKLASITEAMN; partner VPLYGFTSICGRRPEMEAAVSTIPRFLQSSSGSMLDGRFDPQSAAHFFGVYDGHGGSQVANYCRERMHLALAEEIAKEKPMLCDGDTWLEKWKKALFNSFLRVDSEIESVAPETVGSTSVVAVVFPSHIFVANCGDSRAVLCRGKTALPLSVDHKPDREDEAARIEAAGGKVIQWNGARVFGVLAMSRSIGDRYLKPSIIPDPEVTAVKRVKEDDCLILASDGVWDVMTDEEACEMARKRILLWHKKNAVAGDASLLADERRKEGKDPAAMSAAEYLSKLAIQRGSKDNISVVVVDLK"}
{"Variant": "H55D", "relative binding score [%]": 68.2}
{"Variant": "D95A", "relative binding score [%]": 30.7}
{"Variant": "W134F", "relative binding score [%]": 94.3}
{"Variant": "F124Q", "relative binding score [%]": 83.1}
{"Variant": "Y141M", "relative binding score [%]": 10.4}
{"Variant": "F157W", "relative binding score [%]": 12.4}
{"Variant": "T119M", "relative binding score [%]": 80}
{"Variant": "V76A", "relative binding score [%]": 24.9}
{"Variant": "T17Y", "relative binding score [%]": 52.2}
{"Variant": "E128D", "relative binding score [%]": 97.9}
{"Variant": "F66D", "relative binding score [%]": 76.2}
{"Variant": "W41A", "relative binding score [%]": 3.3}
{"data": "Series 4", "target": "CCND2, cyclin fold, Cln2 fusion (human)", "technique": "yeast growth competition, sequencing", "medium": "yeast", "setting": "weak parent motif", "baseline": "not given", "direction": "higher = stronger binding", "parent": "WEE2 docking peptide (human); KELRQKLNFSYCE; partner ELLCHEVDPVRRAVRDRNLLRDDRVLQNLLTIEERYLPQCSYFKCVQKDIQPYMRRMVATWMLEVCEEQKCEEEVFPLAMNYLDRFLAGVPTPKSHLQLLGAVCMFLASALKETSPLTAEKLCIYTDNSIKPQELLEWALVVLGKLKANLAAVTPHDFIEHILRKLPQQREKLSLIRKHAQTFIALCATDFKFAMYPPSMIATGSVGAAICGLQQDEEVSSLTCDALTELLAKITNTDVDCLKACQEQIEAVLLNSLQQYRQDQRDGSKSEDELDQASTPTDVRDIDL"}
{"Variant": "KELRQKLAFSYCE [N8A]", "normalised enrichment score": 0.081}
{"Variant": "KELRQKLNFSYAE [C12A]", "normalised enrichment score": -0.283}
{"Variant": "KELRQKLNFSACE [Y11A]", "normalised enrichment score": -0.172}
{"Variant": "KELRQKANFSYCE [L7A]", "normalised enrichment score": -0.193}
{"Variant": "AELRQKLNFSYCE [K1A]", "normalised enrichment score": -0.142}
{"Variant": "KELRQKLNFSYCA [E13A]", "normalised enrichment score": -0.13}
{"Variant": "KELRQKLNASYCE [F9A]", "normalised enrichment score": 0.48}
{"data": "Series 5", "target": "Fragile X messenger ribonucleoprotein 1, C-terminal low-complexity region (Fmr1, Mus musculus, UniProt P35922)", "technique": "RNA Bind-n-Seq", "molecule type": "RNA", "medium": "in vitro", "tested at": "200 nM", "setting": "whole 134-nt RNA, ends assumed", "added": "150 mM KCl", "baseline": "input library", "direction": "higher = stronger binding", "constant ends, left off below": "GGGAGUUCUACAGUCCGACGAUC … UGGAAUUCUCGGGUGUCAAGG"}
{"Sequence": "UCAAGUCCUGUGCUACACAUCGUAUGUACCGAAUCGGGAGGGAAAAAGGGAGGGAAAGUAUUAUGUUACGCCGUUCGGAUCUGCACUUCC", "log2 enrichment": 1.14}
{"Sequence": "UCCUGUGCUACACAUCGUAUGUACCGAAUCGGGGUUUUUUUGGGGUGGGGUUUUUGGGGAAAGUAUUAUGUUACGCCGUUCGGAUCUGCA", "log2 enrichment": 0.908}
{"Sequence": "UGGCCCUGGUGGCAUGCGGGGAGGAAGAGGGGGCCUCAUGGAUCGUGGUGGUCCCGGUGGAAUGUUCAGAGGUGGCCGUGGUGGAGACAG", "log2 enrichment": 0.374}
{"Sequence": "CCUGUGCUACACAUCGUAUGUACCGAAUCGGGUUUUUGGGUUUUUUUGGGUUUUUUUGGGAAAGUAUUAUGUUACGCCGUUCGGAUCUGC", "log2 enrichment": -0.448}
{"Sequence": "UUAUUGAACUGACAAGGUCCUCCCUGUGUUGUAGCAAGGACCAGACUGGCUUGAGCUCUCUGAGAUGACCGAGCAGCCAGACUAUGACCU", "log2 enrichment": 0.588}
{"Sequence": "GUCCUGUGCUACACAUCGUAUGUACCGAAUCGGGUUUUUUUGGGAGGGAAAAAAAGGGAAAGUAUUAUGUUACGCCGUUCGGAUCUGCAC", "log2 enrichment": -0.109}
{"Sequence": "UCCUGUGCUACACAUCGUAUGUACCGAAUCAAAUUUUUUUAAACCCAAAUUUUUUUAAAAAAGUAUUAUGUUACGCCGUUCGGAUCUGCA", "log2 enrichment": 0.434}
{"Sequence": "AAGUCCUGUGCUACACAUCGUAUGUACCGAAUCGGGGAAAGGGGAGGGGAAAGGGGAAAGUAUUAUGUUACGCCGUUCGGAUCUGCACUU", "log2 enrichment": 0.457}
{"Sequence": "UGGGAGGUGGAUUUUGUUUAUUUUUUUGGCUCAUUUCCAGGGGUGGGAAUUUUUUUUUAAUAUGUGUCAUGAAUAAAGUUGUUUUUGAAA", "log2 enrichment": 0.0736}
{"Sequence": "UAACUUUAGAGGAGGAUCUGAUGGAUAUGGCAGUGGACGUGGAUUUGGGGAUGGCUAUAAUGUGUAUGGAGGAGGACCUGGAGGUGGCAA", "log2 enrichment": 0.221}
{"note": "Excerpt of the above (series 4):"}
{"Variant": "AELRQKLNFSYCE [K1A]", "normalised enrichment score": -0.142}
{"Variant": "KELRQKLNASYCE [F9A]", "normalised enrichment score": 0.48}
{"Variant": "KELRQKLNFSYAE [C12A]", "normalised enrichment score": -0.283}
{"Variant": "KELRQKLNFSACE [Y11A]", "normalised enrichment score": -0.172}
{"Variant": "KELRQKANFSYCE [L7A]", "normalised enrichment score": -0.193}
{"Variant": "KELRQKLNFSYCA [E13A]", "normalised enrichment score": -0.13}
{"Variant": "KELRQKLAFSYCE [N8A]", "normalised enrichment score": 0.081}
